# Published values from different studies.
# Protocols differ between the studies behind these lines. Several values in a cell are separate wells, animals, samples, runs or records.
# G-protein coupled receptor 39: G-protein coupled receptor 39 (Mus musculus, UniProt Q5U431)
# Chain of UniProt Q5U431 (whole entry, looked up): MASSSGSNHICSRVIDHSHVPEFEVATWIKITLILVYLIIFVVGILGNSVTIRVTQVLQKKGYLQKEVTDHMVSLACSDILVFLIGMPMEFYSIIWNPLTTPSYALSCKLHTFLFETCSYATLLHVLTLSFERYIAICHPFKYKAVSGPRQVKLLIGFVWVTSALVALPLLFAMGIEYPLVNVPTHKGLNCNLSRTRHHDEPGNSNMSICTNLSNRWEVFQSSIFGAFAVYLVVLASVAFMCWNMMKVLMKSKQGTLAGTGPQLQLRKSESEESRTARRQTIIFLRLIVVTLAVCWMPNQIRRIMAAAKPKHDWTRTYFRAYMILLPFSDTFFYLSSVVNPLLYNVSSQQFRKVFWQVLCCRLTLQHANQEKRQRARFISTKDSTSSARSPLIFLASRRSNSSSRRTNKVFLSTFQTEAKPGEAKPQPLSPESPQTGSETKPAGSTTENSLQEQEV
# FPR2: N-formyl peptide receptor 2 (FPR2, Homo sapiens, UniProt P25090)
# Chain of UniProt P25090 (whole entry, looked up): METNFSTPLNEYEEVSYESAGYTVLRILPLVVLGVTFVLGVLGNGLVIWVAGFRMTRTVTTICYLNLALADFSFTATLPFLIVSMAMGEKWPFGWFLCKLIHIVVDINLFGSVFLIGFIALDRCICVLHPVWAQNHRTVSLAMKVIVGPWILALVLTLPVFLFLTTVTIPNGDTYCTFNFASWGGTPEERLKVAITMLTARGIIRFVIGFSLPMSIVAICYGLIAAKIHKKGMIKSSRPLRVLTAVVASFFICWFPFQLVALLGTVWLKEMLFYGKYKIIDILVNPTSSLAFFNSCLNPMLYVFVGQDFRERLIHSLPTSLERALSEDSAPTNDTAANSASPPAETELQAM
# SCTR: Secretin receptor (SCTR, Homo sapiens, UniProt P47872)
# Chain of UniProt P47872 (whole entry, looked up): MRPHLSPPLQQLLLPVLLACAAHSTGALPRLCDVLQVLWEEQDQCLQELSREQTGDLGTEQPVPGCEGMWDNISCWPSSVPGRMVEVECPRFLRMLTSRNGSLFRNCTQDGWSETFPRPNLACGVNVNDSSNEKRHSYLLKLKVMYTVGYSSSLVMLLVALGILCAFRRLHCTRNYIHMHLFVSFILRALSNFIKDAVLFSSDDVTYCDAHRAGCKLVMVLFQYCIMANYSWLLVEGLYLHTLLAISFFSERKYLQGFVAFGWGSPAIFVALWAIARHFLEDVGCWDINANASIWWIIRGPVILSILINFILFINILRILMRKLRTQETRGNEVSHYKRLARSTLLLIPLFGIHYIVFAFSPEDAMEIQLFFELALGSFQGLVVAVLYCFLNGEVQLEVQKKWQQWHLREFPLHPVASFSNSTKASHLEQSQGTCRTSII
# RARG: Retinoic acid receptor gamma (RARG, Homo sapiens, UniProt P13631)
# Chain of UniProt P13631 (whole entry, looked up): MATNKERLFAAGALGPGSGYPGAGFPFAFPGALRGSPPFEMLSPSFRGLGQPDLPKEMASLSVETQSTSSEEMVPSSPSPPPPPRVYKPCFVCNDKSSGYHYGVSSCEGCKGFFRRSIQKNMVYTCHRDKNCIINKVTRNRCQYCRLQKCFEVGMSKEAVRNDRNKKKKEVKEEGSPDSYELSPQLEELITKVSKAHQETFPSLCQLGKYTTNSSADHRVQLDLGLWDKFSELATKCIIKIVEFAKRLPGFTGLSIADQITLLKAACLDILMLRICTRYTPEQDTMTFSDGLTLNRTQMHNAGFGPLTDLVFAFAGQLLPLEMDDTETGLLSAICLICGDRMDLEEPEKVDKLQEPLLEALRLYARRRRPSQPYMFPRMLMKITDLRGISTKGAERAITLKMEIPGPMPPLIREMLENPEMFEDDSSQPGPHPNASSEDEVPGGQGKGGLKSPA
# HDAC6: Protein deacetylase HDAC6 (HDAC6, Homo sapiens, UniProt Q9UBN7)
# Chain of UniProt Q9UBN7 (whole entry, looked up): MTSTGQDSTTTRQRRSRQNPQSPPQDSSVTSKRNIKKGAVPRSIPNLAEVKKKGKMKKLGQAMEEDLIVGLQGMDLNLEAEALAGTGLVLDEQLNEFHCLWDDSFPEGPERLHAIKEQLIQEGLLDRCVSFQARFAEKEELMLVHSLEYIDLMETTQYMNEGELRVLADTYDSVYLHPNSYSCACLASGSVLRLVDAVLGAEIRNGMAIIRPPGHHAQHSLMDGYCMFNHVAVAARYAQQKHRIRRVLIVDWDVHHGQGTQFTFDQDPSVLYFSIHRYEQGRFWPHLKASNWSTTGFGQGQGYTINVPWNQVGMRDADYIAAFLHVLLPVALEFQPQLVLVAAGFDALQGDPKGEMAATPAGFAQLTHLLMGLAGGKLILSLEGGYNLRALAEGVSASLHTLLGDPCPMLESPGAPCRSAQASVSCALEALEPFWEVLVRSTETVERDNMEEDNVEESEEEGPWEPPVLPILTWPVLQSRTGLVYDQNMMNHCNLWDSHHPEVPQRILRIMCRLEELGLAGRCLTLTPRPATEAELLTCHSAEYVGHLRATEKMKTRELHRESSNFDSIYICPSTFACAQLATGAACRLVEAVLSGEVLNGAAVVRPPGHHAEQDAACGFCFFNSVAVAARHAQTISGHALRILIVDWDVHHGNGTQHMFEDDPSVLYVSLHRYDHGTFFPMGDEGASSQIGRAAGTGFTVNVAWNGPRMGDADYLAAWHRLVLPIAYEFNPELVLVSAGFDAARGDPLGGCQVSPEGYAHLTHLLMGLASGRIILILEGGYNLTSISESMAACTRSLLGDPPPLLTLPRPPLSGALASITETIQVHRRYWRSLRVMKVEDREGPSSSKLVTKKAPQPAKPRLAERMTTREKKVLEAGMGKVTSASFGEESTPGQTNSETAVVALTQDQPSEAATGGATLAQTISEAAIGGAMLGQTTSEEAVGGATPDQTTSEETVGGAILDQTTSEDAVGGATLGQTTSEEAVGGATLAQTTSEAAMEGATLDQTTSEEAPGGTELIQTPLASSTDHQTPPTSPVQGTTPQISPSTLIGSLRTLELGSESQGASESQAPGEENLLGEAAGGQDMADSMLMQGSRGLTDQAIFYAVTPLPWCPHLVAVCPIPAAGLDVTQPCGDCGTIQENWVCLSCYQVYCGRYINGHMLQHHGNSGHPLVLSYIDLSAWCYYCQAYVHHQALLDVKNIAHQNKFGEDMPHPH
# Chain of UniProt P34995 (whole entry, looked up): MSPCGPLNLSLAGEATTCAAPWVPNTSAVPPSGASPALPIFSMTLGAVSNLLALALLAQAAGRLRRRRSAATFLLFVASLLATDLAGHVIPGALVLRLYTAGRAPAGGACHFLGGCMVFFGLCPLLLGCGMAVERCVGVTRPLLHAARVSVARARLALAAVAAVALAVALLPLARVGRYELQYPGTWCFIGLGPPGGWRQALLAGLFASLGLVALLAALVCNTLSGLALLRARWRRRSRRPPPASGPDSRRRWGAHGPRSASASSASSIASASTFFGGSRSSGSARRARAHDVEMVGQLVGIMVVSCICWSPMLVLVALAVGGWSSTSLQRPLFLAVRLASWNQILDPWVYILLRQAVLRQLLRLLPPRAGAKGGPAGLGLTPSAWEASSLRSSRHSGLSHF
# Chain of UniProt P0DMS8 (whole entry, unmodified, looked up): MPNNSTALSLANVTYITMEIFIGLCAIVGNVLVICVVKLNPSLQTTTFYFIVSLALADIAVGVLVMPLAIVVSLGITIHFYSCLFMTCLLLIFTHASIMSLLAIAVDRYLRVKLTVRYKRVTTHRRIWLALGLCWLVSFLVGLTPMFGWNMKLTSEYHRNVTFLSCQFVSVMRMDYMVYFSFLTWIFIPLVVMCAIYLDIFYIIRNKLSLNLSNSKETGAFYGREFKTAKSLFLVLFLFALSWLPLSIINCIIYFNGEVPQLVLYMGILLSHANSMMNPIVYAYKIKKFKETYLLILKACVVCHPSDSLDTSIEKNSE
# Chain of UniProt P57078 (whole entry, looked up): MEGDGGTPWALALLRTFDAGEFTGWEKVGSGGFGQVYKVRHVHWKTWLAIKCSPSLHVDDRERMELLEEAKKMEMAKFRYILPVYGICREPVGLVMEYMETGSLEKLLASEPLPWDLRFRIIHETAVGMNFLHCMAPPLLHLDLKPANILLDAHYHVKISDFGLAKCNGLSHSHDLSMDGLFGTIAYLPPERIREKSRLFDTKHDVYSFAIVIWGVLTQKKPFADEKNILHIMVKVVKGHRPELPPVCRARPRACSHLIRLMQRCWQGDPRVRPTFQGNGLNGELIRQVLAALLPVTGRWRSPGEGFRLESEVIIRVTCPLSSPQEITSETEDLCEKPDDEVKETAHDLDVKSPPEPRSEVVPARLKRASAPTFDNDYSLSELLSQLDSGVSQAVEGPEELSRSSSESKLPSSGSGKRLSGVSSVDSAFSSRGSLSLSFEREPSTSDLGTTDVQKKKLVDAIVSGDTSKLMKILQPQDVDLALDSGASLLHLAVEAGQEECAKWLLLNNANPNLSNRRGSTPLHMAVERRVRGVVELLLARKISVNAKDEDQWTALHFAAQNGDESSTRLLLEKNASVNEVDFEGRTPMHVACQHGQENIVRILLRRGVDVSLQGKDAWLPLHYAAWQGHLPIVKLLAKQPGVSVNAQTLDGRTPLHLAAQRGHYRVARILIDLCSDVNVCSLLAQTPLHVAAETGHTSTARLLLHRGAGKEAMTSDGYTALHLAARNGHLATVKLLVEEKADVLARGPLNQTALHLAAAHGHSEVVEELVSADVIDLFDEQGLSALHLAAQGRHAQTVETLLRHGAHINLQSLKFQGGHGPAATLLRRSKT
# Chain of UniProt Q8WZ84 (whole entry, unmodified, looked up): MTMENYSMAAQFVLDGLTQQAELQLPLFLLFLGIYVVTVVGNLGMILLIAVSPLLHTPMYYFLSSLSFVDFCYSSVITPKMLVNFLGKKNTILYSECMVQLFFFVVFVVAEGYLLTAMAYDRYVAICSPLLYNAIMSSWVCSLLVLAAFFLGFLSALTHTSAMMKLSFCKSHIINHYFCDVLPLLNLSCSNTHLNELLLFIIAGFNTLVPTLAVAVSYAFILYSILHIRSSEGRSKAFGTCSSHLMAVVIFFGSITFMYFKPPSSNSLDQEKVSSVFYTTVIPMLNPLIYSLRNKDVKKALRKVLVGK
SMILES,target or system,assay,system,conditions,quantity,value
COc1cc(-c2cncc3c2CN(C)Cc2cc(N4CCNCC4)ccc2-3)cc(OC)c1OC,"VRK1 (Homo sapiens, UniProt Q99986)","enzyme activity, inhibitor",,1 µM,remaining activity,113%
C[C@H](CCC(=O)O)[C@H]1CC[C@H]2[C@@H]3[C@H](O)C[C@@H]4C[C@H](O)CC[C@]4(C)[C@H]3CC[C@]12C,G-protein coupled receptor 39,"calcium signal, agonist, fluorescence",,,EC50,> 200 µM
N#Cc1ccc(C[C@H](Nc2nnc(-c3cccc(F)c3)s2)C(=O)N2CCc3ccccc32)cc1,FPR2,"calcium signal, agonist",,,EC50,37.4 µM
CC1=NN(/C(=N\c2ccccn2)Nc2nnc(C)s2)C(c2ccc(C)cc2)S1 (stereo not shown),SCTR,"cAMP, agonist, TR-FRET",,,EC50,> 50 µM
COC(=O)c1cccc(C(=O)c2c[nH]c3ccc(OC)cc23)n1,"AHR (Homo sapiens, UniProt P35869)","reporter gene, agonist, luciferase",,,EC50,0.064 µM
CCc1ccc(C2=CC(C)(C)Sc3ccc(C#Cc4ccc(C(=O)O)cc4)cc32)cc1,RARG,"reporter gene, antagonist, luciferase",,,EC50,5e-05 µM
CC1=C(O)C(=O)OC1C (stereo not shown),"OR8D1 (Homo sapiens, UniProt Q8WZ84, D296E/K295A)","cAMP, agonist, luciferase",,,EC50,5.13 µM
C[C@H](CCC(=O)O)[C@H]1CC[C@H]2[C@@H]3CC[C@@H]4C[C@H](O)CC[C@]4(C)[C@H]3C[C@H](O)[C@]12C,G-protein coupled receptor 39,"calcium signal, agonist, fluorescence",,,EC50,> 200 µM
O=C(NO)c1cccc(OS(=O)(=O)Oc2cccc(-c3ccccc3)c2)c1,HDAC6,"enzyme activity, inhibitor, fluorescence",,,Ki,0.295 µM
CC1=NN(/C(=N\c2ccc(C(F)(F)F)cc2)Nc2nnc(C)s2)C(c2ccc(C)cc2)S1 (stereo not shown),SCTR,"cAMP, agonist, TR-FRET",,,EC50,16.5 µM
COc1cccc(-c2n[nH]c(SCc3ccccn3)n2)c1OC,,,"male Sprague-Dawley rat, plasma","oral, 100 mg/kg, 24 h, single dose",concentration,34.8 ng/mL
CC1=NN(/C(=N/c2nnc(C)s2)Nc2ccc(C)c(C)c2)C(c2ccsc2)S1 (stereo not shown),SCTR,"cAMP, agonist, TR-FRET",,,EC50,7 µM
CCOc1c(Br)cc(C(=O)Nc2ccc(C(=O)O)cc2)cc1C(=O)c1ccc(C)cc1,RARG,"reporter gene, antagonist, luciferase",,,EC50,> 5 µM
O=C(NO)c1cc(F)cc(OS(=O)(=O)Oc2ccc(Oc3ccccc3)cc2)c1,HDAC6,"enzyme activity, inhibitor, fluorescence",,,Ki,1.18 µM
N#Cc1ccc(C[C@H](Nc2nnc(-c3cccc(Br)c3)s2)C(=O)N2CCc3ccccc32)cc1,FPR2,"calcium signal, agonist",,,EC50,13.6 µM
CC(C)=CCNc1ncnc2c1ncn2[C@@H]1O[C@H](CO)[C@@H](O)[C@H]1O,"ADORA3 (Homo sapiens, UniProt P0DMS8, M174L)","G protein activation, agonist",,,EC50,0.66 µM
CC1=NN(/C(=N\c2ccc(F)cc2)Nc2nnc(C)s2)C(c2ccc(C)cc2)S1 (stereo not shown),SCTR,"cAMP, agonist, TR-FRET",,,EC50,6.8 µM
Cc1cc(Oc2ncccc2CN2CCN(c3ccccc3)CC2)ccc1-c1c(C)c(=O)[nH]c(=O)n1C,"ADRA2C (Homo sapiens, UniProt P18825)","cAMP, agonist, luciferase",,,EC50,89 µM
CC1=NN(/C(=N/c2nnc(C)s2)Nc2ccc(C)c(C)c2)C(c2cccc(-c3ccccc3)c2)S1 (stereo not shown),SCTR,"cAMP, agonist, TR-FRET",,,EC50,1.2 µM
N#Cc1ccc(C[C@H](Nc2c(Nc3ccc(Br)cc3)c(=O)c2=O)C(=O)N2CCc3ccccc32)cc1,FPR2,"calcium signal, agonist",,,EC50,0.2 µM
C[C@H](CCC(=O)O)[C@H]1CC[C@H]2[C@@H]3CC[C@@H]4C[C@H](O)CC[C@]4(C)[C@H]3CC[C@]12C,G-protein coupled receptor 39,"calcium signal, agonist, fluorescence",,,EC50,> 200 µM
CNc1ncc2c(/C=C/C(=O)N3CCC(OC)CC3)nn(Cc3cccc(C(F)(F)F)c3)c2n1,"HIPK3 (Homo sapiens, UniProt Q9H422)","enzyme activity, inhibitor, radiometric",,1 µM,remaining activity,96%
CC1=NN(/C(=N\c2ccc(Br)cc2)Nc2nnc(C)s2)C(c2ccc(C)cc2)S1 (stereo not shown),SCTR,"cAMP, agonist, TR-FRET",,,EC50,6.1 µM
C1=C/COCc2cc(ccc2OCCN2CCCC2)Nc2nccc(n2)-c2cccc(c2)COC/1,"KIT (Homo sapiens, UniProt P10721, V559D/V654A)",binding,,0.1 µM,remaining binding,74%
N#Cc1ccc(C[C@H](NC(=O)c2cc3ccc(F)cc3[nH]2)C(=O)N2CCc3ccccc32)cc1,FPR2,"calcium signal, agonist",,,EC50,15.1 µM
CC1=NN(/C(=N\c2ccccc2C)Nc2nnc(C)s2)C(c2ccc(C)cc2)S1 (stereo not shown),SCTR,"cAMP, agonist, TR-FRET",,,EC50,> 50 µM
C=CC(=O)N1CCC(COCC(=O)N2CCN(c3nc(-c4cnc(N)nc4C(F)F)nc(N4CCOC[C@@H]4C)n3)CC2)CC1,"COQ8B (Homo sapiens, UniProt Q96D53)","binding, competition with immobilised ligand",,1 µM,remaining binding,90%
CCN(O)N=Nc1ccc(S(=O)(=O)Nc2cc(C)on2)cc1,,ABTS scavenging,,300 µg/mL,inhibition,38.4%
CC1=NN(/C(=N/c2nnc(C)s2)Nc2ccc(C)c(C)c2)C(c2ccc(F)c(F)c2)S1 (stereo not shown),SCTR,"cAMP, agonist, TR-FRET",,,EC50,0.4 µM
CC(=O)Nc1ccc(Oc2nnc(-c3ccc(Cl)cc3)c3ccccc23)cc1,MCF7,"cell growth or viability, MTT",,10 µM,cell death,94.2%
CCCCC(=O)Nc1ccc(-c2ccc3ncn(CCC)c(=O)c3c2)cn1,"RIPK4 (Homo sapiens, UniProt P57078)","binding, competition with immobilised ligand",,0.5 µM,remaining binding,100%
Cc1cc([C@@H](C)Nc2ccccc2C(=O)O)c2nc(N3CCC(F)(F)CC3)c(C#N)c(=O)n2c1,"MAPK11 (Homo sapiens, UniProt Q15759)","binding, competition with immobilised ligand",,1 µM,remaining binding,71%
CCCCC[C@H](O)/C=C/[C@H]1[C@H](O)CC(=O)[C@@H]1C/C=C\CCCC(=O)O,"PTGER1 (Homo sapiens, UniProt P34995)","inositol phosphate, agonist, TR-FRET",,,EC50,0.00179 µM and 0.002 µM
O=C1CC[C@H](N2Cc3cc(N4CCN(CC5CCN(c6ccc([C@@H]7c8ccc(O)cc8CC[C@@H]7c7ccccc7)cc6)CC5)CC4)ccc3C2=O)C(=O)N1,,,"male Sprague-Dawley rat, plasma","oral, 20 mg/kg",bioavailability,26.6%
CN(C)c1ncnc2c1ncn2[C@@H]1O[C@H](CO)[C@@H](O)[C@H]1O,"ADORA3 (Homo sapiens, UniProt P0DMS8, I253Q/V169N)","G protein activation, agonist",,,EC50,26 µM
N#Cc1ccc(C[C@H](Nc2nnc(-c3ccc(Br)cc3)s2)C(=O)N2CCc3ccccc32)cc1,FPR2,"calcium signal, agonist",,,EC50,28.1 µM
C[C@H](CCC(=O)NCCS(=O)(=O)O)[C@H]1CC[C@H]2[C@@H]3[C@@H](O)C[C@@H]4C[C@H](O)CC[C@]4(C)[C@H]3CC[C@]12C,G-protein coupled receptor 39,"calcium signal, agonist, fluorescence",,,EC50,> 200 µM

# A few entries again:
SMILES,target or system,assay,system,conditions,quantity,value
COc1cccc(-c2n[nH]c(SCc3ccccn3)n2)c1OC,,,"male Sprague-Dawley rat, plasma","oral, 100 mg/kg, 24 h, single dose",concentration,34.8 ng/mL
N#Cc1ccc(C[C@H](Nc2nnc(-c3cccc(Br)c3)s2)C(=O)N2CCc3ccccc32)cc1,FPR2,"calcium signal, agonist",,,EC50,13.6 µM
N#Cc1ccc(C[C@H](Nc2nnc(-c3cccc(F)c3)s2)C(=O)N2CCc3ccccc32)cc1,FPR2,"calcium signal, agonist",,,EC50,37.4 µM
C1=C/COCc2cc(ccc2OCCN2CCCC2)Nc2nccc(n2)-c2cccc(c2)COC/1,"KIT (Homo sapiens, UniProt P10721, V559D/V654A)",binding,,0.1 µM,remaining binding,74%
N#Cc1ccc(C[C@H](NC(=O)c2cc3ccc(F)cc3[nH]2)C(=O)N2CCc3ccccc32)cc1,FPR2,"calcium signal, agonist",,,EC50,15.1 µM
CCCCC(=O)Nc1ccc(-c2ccc3ncn(CCC)c(=O)c3c2)cn1,"RIPK4 (Homo sapiens, UniProt P57078)","binding, competition with immobilised ligand",,0.5 µM,remaining binding,100%
